# Measured values from different studies.
# Every numbered part comes from another study and shows a few of its results, in no order.
# Chain of UniProt P51817 (whole entry, looked up): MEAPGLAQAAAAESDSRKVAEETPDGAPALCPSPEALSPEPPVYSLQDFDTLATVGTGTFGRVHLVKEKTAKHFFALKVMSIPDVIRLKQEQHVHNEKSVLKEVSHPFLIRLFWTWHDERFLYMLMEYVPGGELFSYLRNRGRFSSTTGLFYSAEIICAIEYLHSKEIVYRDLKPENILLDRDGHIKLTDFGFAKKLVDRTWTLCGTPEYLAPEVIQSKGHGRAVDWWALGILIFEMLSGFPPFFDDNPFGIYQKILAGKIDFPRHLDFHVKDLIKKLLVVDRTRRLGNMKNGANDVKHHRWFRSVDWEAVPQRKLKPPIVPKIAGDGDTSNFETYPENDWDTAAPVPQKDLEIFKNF
# Chain of UniProt O75676 (whole entry, looked up): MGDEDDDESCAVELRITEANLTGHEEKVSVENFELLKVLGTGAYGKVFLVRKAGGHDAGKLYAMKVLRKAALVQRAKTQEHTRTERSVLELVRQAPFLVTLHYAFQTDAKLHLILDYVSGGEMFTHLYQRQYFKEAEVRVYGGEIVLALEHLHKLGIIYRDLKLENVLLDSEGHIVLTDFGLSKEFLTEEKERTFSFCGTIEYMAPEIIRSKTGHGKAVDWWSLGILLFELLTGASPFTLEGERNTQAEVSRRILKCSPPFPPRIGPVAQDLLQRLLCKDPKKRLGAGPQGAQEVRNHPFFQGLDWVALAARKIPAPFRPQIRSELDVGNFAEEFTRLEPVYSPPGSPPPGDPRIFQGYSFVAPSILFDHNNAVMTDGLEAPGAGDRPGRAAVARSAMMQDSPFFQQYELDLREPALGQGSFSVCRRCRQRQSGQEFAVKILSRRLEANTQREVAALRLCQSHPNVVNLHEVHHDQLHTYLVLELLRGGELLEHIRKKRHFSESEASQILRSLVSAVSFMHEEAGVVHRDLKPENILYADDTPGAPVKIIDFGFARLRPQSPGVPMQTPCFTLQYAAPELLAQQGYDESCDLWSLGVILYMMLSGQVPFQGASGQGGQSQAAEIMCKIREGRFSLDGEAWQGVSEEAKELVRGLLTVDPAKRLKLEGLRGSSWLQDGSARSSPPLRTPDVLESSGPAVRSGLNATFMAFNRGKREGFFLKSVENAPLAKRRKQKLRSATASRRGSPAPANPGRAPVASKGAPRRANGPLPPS
# Chain of UniProt Q9H4B4 (whole entry, looked up): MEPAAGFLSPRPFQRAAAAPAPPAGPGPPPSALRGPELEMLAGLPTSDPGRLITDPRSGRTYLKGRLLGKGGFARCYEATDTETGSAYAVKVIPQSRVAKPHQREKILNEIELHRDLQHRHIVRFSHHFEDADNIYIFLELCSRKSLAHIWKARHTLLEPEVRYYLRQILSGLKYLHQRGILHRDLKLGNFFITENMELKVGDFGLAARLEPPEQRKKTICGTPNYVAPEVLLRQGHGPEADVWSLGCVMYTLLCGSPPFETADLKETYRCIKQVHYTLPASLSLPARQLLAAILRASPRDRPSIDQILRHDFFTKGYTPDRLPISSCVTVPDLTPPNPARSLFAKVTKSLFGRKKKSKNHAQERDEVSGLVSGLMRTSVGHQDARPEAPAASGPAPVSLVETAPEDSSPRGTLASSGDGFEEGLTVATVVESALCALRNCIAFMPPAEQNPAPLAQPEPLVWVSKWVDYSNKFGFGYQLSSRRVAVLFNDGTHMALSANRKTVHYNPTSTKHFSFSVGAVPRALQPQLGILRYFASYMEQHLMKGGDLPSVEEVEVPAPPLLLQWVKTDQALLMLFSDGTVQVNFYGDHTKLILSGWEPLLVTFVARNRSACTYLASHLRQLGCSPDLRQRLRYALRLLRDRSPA
# Chain of UniProt Q9HAZ1 (whole entry, looked up): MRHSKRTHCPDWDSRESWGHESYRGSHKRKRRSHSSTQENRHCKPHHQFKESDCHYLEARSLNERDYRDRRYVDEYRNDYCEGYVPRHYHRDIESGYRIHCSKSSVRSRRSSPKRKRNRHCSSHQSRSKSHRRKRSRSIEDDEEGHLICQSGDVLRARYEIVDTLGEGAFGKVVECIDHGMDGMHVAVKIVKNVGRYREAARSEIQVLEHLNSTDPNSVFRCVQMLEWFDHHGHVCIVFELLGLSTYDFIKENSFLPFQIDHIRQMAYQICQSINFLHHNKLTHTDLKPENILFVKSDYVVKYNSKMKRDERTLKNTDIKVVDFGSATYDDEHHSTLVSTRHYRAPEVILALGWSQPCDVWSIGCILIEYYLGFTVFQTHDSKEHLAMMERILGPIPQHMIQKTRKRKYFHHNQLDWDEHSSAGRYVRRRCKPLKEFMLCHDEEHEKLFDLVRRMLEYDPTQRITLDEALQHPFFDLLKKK
# Chain of UniProt Q13237 (whole entry, looked up): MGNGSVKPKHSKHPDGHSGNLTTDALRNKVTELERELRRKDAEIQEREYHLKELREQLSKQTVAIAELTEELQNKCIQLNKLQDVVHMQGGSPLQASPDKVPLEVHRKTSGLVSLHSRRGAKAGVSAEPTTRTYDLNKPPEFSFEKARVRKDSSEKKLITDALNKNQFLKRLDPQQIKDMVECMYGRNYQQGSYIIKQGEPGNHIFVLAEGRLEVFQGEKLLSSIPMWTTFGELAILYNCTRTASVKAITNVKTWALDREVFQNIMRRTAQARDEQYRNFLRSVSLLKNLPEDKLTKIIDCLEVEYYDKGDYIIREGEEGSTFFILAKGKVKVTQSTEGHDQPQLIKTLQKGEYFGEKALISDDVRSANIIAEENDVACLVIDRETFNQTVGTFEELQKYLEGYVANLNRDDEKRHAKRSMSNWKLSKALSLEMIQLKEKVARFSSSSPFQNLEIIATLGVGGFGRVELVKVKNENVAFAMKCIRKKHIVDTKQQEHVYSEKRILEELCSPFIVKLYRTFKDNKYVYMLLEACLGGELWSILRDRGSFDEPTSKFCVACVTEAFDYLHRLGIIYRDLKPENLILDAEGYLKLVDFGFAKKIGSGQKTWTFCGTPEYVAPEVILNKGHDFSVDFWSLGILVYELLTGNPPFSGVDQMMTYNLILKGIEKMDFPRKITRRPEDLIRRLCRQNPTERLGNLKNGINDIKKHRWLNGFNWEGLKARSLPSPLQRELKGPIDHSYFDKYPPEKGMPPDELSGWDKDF
# Chain of UniProt P31751 (whole entry, looked up): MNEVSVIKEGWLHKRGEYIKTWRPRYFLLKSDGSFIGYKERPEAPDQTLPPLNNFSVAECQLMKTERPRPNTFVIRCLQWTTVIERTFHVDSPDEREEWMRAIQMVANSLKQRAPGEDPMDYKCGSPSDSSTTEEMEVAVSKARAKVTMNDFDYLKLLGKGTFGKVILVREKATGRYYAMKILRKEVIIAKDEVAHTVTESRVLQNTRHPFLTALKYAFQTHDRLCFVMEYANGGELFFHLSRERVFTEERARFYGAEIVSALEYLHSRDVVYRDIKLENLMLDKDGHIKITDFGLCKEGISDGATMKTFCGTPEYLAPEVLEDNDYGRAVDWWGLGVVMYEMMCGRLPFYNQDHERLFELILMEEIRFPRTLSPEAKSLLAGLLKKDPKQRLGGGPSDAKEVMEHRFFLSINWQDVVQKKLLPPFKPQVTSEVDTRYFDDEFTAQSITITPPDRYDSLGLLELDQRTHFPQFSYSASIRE
# Chain of UniProt Q15759 (whole entry, looked up): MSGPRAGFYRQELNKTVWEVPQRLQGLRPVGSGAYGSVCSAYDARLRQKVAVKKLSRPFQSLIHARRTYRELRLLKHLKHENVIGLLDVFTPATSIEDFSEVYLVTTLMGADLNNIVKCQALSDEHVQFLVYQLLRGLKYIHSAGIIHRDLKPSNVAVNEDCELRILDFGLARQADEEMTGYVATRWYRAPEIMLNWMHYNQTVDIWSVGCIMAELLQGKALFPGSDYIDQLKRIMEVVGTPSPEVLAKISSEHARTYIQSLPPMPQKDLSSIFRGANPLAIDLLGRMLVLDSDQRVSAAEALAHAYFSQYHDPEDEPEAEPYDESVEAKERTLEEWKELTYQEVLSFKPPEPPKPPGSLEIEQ
# Chain of UniProt O94921 (whole entry, looked up): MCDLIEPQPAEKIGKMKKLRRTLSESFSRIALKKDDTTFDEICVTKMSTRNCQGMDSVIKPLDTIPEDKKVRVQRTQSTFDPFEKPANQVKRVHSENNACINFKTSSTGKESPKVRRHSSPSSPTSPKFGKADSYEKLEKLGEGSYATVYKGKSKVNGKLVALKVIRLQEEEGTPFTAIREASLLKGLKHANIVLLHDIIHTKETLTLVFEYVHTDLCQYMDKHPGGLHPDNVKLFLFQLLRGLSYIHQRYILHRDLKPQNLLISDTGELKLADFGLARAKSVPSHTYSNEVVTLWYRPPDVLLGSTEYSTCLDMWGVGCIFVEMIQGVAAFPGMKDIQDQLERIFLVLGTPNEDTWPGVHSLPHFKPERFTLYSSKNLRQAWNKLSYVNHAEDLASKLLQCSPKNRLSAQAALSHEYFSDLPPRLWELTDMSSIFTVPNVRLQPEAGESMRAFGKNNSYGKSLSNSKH

# Study 1 — read-out: cell-free assay; technique: competition with immobilised ligand; concentration: 1 µM
# Compound: O=C(NC[C@@H]1[C@H]2CN(C(=O)OCc3cc(C(F)(F)F)cc(C(F)(F)F)c3)C[C@@H]12)c1ccc2[nH]nnc2c1
target,remaining binding
"TNNI3K (Homo sapiens, UniProt Q59H18)",80%
"CDK14 (Homo sapiens, UniProt O94921)",96%
"PKN2 (Homo sapiens, UniProt Q16513)",93%
"Ribosomal protein S6 kinase alpha-3, C-terminal kinase domain (RPS6KA3, Homo sapiens, UniProt P51812)",89%
"EPHA1 (Homo sapiens, UniProt P21709)",100%
"PRKX (Homo sapiens, UniProt P51817)",86%
"ALK (Homo sapiens, UniProt Q9UM73, C1156Y)",94%

# Study 2 — technique: protein-binding microarray; form: double-stranded DNA, one strand shown; medium: in vitro; concentration: not given; direction: higher = stronger binding
# Target: Protein C-ets-1 (ETS1, Homo sapiens, UniProt P14921, residues 1-441, full length assumed)
# Chain of UniProt P14921 (whole entry, looked up): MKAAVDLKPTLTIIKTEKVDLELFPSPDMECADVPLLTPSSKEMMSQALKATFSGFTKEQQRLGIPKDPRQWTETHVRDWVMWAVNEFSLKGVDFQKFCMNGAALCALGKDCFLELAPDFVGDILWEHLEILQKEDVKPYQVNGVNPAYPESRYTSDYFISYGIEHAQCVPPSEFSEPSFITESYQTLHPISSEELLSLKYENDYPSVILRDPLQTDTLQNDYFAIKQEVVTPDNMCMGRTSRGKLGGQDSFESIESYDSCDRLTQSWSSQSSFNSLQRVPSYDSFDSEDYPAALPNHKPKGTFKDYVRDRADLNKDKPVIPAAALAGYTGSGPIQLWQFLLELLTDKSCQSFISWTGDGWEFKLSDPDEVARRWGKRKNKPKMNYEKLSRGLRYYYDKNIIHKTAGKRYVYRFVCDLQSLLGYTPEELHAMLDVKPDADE
# Setting: k-mer, scored over probes, only values ≥0.25
Strand,E-score
GTAGGAAA,0.366
CATATCCC,0.307
CTGACTTC,0.324
ACCGGCGG,0.319
CTCCGGTC,0.294
ATAGCGGA,0.314
CCCAGTTC,0.261
TACGGGAA,0.28

# Study 3 — Compound: Cc1cc2ncc(-c3ccccc3)nc2cc1C; read-out: enzyme activity; action: inhibitor; concentration: 0.5 µM; reference: control
target,remaining activity [%]
"ROCK1 (Homo sapiens, UniProt Q13464)",100
"TLK2 (Homo sapiens, UniProt Q86UE8)",100
"MAP2K1 (Homo sapiens, UniProt Q02750)",98
"CDC42BPB (Homo sapiens, UniProt Q9Y5S2)",101
"DCLK2 (Homo sapiens, UniProt Q8N568)",100
"TXK (Homo sapiens, UniProt P42681)",99.5
"MINK1 (Homo sapiens, UniProt Q8N4C8)",91.8
"RPS6KA4 (Homo sapiens, UniProt O75676)",99.4
"MAPK11 (Homo sapiens, UniProt Q15759)",96.8
"AKT2 (Homo sapiens, UniProt P31751)",99.7
"PRKG2 (Homo sapiens, UniProt Q13237)",99.3
"CLK4 (Homo sapiens, UniProt Q9HAZ1)",96
"PLK3 (Homo sapiens, UniProt Q9H4B4)",90.1
"Myosin-IIIb (MYO3B, Homo sapiens, UniProt Q8WXR4)",99

# Other studies, line by line
Substance,partner,technique,setting,quantity,result
"HMGA1 (Homo sapiens, UniProt P17096)","H2BC5 (Homo sapiens, UniProt P58876)",cross-linking MS,hits only,interaction screen,cross-linked
